Assay results collected from several papers.
Values joined by “and” are separate records of one study, mostly repeats; a detail may differ.
JAK1 JH1 kinase domain: Tyrosine-protein kinase JAK1, JH1 kinase domain (JAK1, Homo sapiens, UniProt P23458)
JAK1: Tyrosine-protein kinase JAK1 (JAK1, Homo sapiens, UniProt P23458)
JAK1 JH1: Tyrosine-protein kinase JAK1, JH1 (JAK1, Homo sapiens, UniProt P23458)
JAK1 JH2: Tyrosine-protein kinase JAK1, JH2 (JAK1, Homo sapiens, UniProt P23458)

| Compound | target | test | system | conditions | scale | quantity | result |
| --- | --- | --- | --- | --- | --- | --- | --- |
| CNC1C[S+]2CC[S+]3CC[S+](C1)[Ru-4]321([N]=C=S)[n]2c3ccc(OC)cc3c3c4c(c5cc(F)c[n+]1c5c32)C(=O)NC4=O (stereo not shown) | JAK1 JH1 kinase domain | KinomeScan |  | 0.1 µM | baseline: untreated | remaining binding | 94% |
| C=CC(=O)Nc1cccc(-c2cnc3[nH]cc(C(=O)NC(C)(C)C)c3n2)c1 | JAK1 | kinase activity |  | 0.1 µM |  | inhibition | 5% and 4% |
| NC(=O)C[C@H]1CCc2sc3ncnc(O[C@H]4CC[C@H](N5CCOCC5)CC4)c3c21 | JAK1 | enzyme activity, inhibitor |  | 10 µM |  | inhibition | -8% |
| CCn1cc(C(=O)O)c(=O)c2c(N)c(F)c(NC3CCCCC3)cc21 | JAK1 JH1 kinase domain | kinase activity |  | 0.1 µM, added: ATP at Km |  | inhibition | -2.6% |
| Cc1cccc(O[C@H]2CCC[C@@H](C(C)CNCc3ccncc3)C2)c1 (relative stereo) | JAK1 | kinase activity, kinome panel screening |  | 10 µM |  | inhibition | -5% |
| Nc1ncc2c(n1)-c1c([nH]c3ccc(C4=CCOCC4)cc13)CCC2 | JAK1 JH1 | binding, competition with immobilised ligand |  | 1 µM |  | remaining binding | 90% |
| C=CC(=O)N1CCCC(n2c(=O)c3ncccc3n(Cc3ccc(Oc4ccccc4)cc3)c2=O)C1 (stereo not shown) | JAK1 JH2 | binding, competition with immobilised ligand |  | 1 µM |  | remaining binding | 46% |
| Cc1c[nH]c2nccc(-c3ccc(C(=O)N[C@@H]4c5c(F)cc(C(F)F)cc5C[C@@H]4O)cn3)c12 | JAK1 JH1 | binding, competition with immobilised ligand |  | 3 µM |  | remaining binding | 32% |
| COc1ccc(NC(=O)Nc2ccc3c(c2)C(=O)N(C(C)CO)CC(C)C(CN(C)Cc2ccc4c(c2)OCO4)O3)cc1 (stereo not shown) | JAK1 | kinase activity, KinaseProfiler |  | 0.03 µM, species human | baseline: control | remaining activity | 95% |
| CCN1CCN(Cc2ccc(C(=O)Nc3ccc(C)c(NCc4cnc5[nH]ccc5c4OC)c3)cc2C(F)(F)F)CC1 | JAK1 JH1 | binding, competition with immobilised ligand |  | 1 µM |  | remaining binding | 66% |
| O=C(Cc1ccc(OCc2ccccc2)cc1)NC1(C(=O)O)CCN(C(=O)c2ccc(-c3cccc(Cl)c3)cc2)CC1 | JAK1 JH1 | enzyme activity, inhibitor |  | 10 µM |  | activity vs control | 107% |
| COc1cc(Nc2nccc(-c3cnn4nc(OC)ccc34)n2)cc(C(F)(F)F)c1 | JAK1 JH1 | binding, competition with immobilised ligand |  | 1 µM |  | remaining binding | 100% |
| CN1CC[C@@H](COc2cnc(C#N)cc2-c2ccn3nc(NC(=O)C4CC4)cc3c2)C1 | JAK1 | enzyme activity, inhibitor |  | 1 µM |  | inhibition | 12% |
| CS(=O)(=O)Nc1cccc(-c2csc3cnc(Nc4ccc(N5CCN(CCCCCOc6cccc7c6C(=O)N(C6CCC(=O)NC6=O)C7=O)CC5)cc4)nc23)c1 (stereo not shown) | Tyrosine-protein kinase JAK1, JH2 pseudokinase domain (JAK1, Homo sapiens, UniProt P23458) | probe labelling, inhibitor, KiNativ chemoproteomics | MOLT-4 | 1 µM |  | inhibition | 3.55% |
| Cc1cnc2nc1Nc1cccc(c1)COC/C=C/COCc1cc(ccc1OCCN1CCOCC1)N2 | JAK1 JH1 | cell-free assay |  | 0.1 µM |  | remaining signal | 8.5% |
| COc1c(Cl)cccc1Nc1c(-c2ccncc2C#C[C@@]2(C)CCCN2C(=O)/C=C/CN(C)C)[nH]c2c1C(=O)NCC2 | JAK1 | binding, competition with immobilised ligand |  | 3 µM |  | remaining binding | 95% |
| O=C(Nc1ccc(Oc2ncnc3[nH]cc(-c4ccccc4)c23)c(F)c1)c1c2n(n(-c3cc(F)ccc3F)c1=O)CCCC2 | JAK1 | enzyme activity, inhibitor |  | 0.5 µM |  | inhibition | 15% |
| COc1cc(-n2cc3cc(F)cc(C(N)=O)c3n2)cc(Cl)c1C1CC(O)(CCO)Cc2ccccc21 (stereo not shown) | JAK1 | enzyme activity, inhibitor |  | 10 µM |  | inhibition | 4.45% |
| Cc1[nH]nc2c1N=C(c1ccccc1Cl)c1cnc(N3CCOCC3)cc1N2 | JAK1 | enzyme activity, inhibitor |  | 0.5 µM |  | inhibition | 97.6% |
| CC(C)=CC1OC(C)(C)C2C=C3C(=O)C(Cl)=CC(O)C3C3C(O)C4OC4C(=O)C132 (stereo not shown) | JAK1 JH1 | cell-free assay, competition with immobilised ligand |  | 10 µM |  | remaining binding | 78% |
| C=CC(=O)N1CCc2ccc(-n3c(=O)ccc4cnc5ccc(-c6cnn(C)c6)cc5c43)cc21 | JAK1 JH1 kinase domain | KINOMEscan |  | 1 µM | baseline: DMSO control | remaining binding | 97% |
| CNC(=O)C1CCN(c2cc(C)c(F)cc2NC(=O)c2ccc(-c3cc(O)ccc3C)c(C)c2)CC1 | JAK1 JH2 | binding, competition with immobilised ligand |  | 1 µM |  | remaining binding | 100% |

Some of these lines once more:
| Compound | target | test | system | conditions | scale | quantity | result |
| --- | --- | --- | --- | --- | --- | --- | --- |
| COc1cc(-n2cc3cc(F)cc(C(N)=O)c3n2)cc(Cl)c1C1CC(O)(CCO)Cc2ccccc21 (stereo not shown) | JAK1 | enzyme activity, inhibitor |  | 10 µM |  | inhibition | 4.45% |
| Cc1[nH]nc2c1N=C(c1ccccc1Cl)c1cnc(N3CCOCC3)cc1N2 | JAK1 | enzyme activity, inhibitor |  | 0.5 µM |  | inhibition | 97.6% |
| CC(C)=CC1OC(C)(C)C2C=C3C(=O)C(Cl)=CC(O)C3C3C(O)C4OC4C(=O)C132 (stereo not shown) | JAK1 JH1 | cell-free assay, competition with immobilised ligand |  | 10 µM |  | remaining binding | 78% |
